# Published values pooled from the literature.
# Each line is one published result; not all experiments were run side by side.
SMILES,organism,assay,system,conditions,EC50
CC(=O)Oc1ccc(Cn2cc(C)c(=O)[nH]c2=O)cc1C1OC(c2ccc(Cl)cc2)=NN1C(C)=O (centres unmarked),varicella-zoster virus,"plaque formation, plaque reduction","HEL fibroblasts, TK- strain 07-1",,> 20 µM
CNC(=O)CNc1cnc2ccc(-c3ccc(OC)c(OC)c3)cc2n1,Cryptosporidium hominis,cytopathic effect,HCT-8,,8.56 µM
CCCCCCCCCC(=O)OCC1OC(n2cc(C)c(=O)[nH]c2=O)CC1N(C)C (centres unmarked),reovirus 1,viral replication,Vero,,> 0.23 µM
O=c1cc[s+]([O-])c2ccccc12 (racemic),Leishmania panamensis,"parasite growth, flow cytometry",U-937,"72 h, intracellular, amastigote",112 µM
CC(=O)Oc1ccc(Cn2ccc(=O)[nH]c2=O)cc1C1OC(c2cccc(Cl)c2)=NN1C(C)=O (centres unmarked),varicella-zoster virus,"plaque formation, plaque reduction","HEL fibroblasts, TK+ strain OKA",,43 µM
CCOC(=O)[C@@H](C)NP(=O)(CO[C@H](CF)Cn1cnc(N)nc1=O)N[C@H](C)C(=O)OCC,varicella-zoster virus,plaque formation,"HEL, TK-deficient 07-1",,> 100 µM
O=S(=O)(CCC(F)(F)F)N[C@H]1CC[C@H](Nc2ncc3c(-c4ccccn4)n[nH]c3n2)CC1,Leishmania donovani,,"promastigotes, LdBOB wild type start clone",,0.1 µM
CC(=O)Oc1ccc(Cn2cc(F)c(=O)[nH]c2=O)cc1C1OC(c2cccc(Cl)c2)=NN1C(C)=O (centres unmarked),varicella-zoster virus,"plaque formation, plaque reduction","HEL fibroblasts, TK+ strain OKA",,34.4 µM
Nc1ncnc2c1c(F)cn2[C@@H]1O[C@H](CO)[C@@H](O)[C@H]1O,Trypanosoma equiperdum,"parasite growth, resazurin",,72 h,0.033 µM
CC(C)OC(=O)[C@H](Cc1ccccc1)NP(=O)(COCCn1cnc2c(=O)[nH]c(=O)[nH]c21)N[C@@H](Cc1ccccc1)C(=O)OC(C)C,varicella-zoster virus,plaque formation,"HEL, Oka TK+",,22 µM
CNC(=O)c1ccc(-c2cnn3ccc(C(=O)N(c4ccc(C#N)cn4)C(C)(C)C)cc23)cc1,Cryptosporidium hominis,cytopathic effect,HCT-8,,1.94 µM
CCCCCCCCCC1=CC(=O)c2ccccc2S1(=O)=O,Leishmania panamensis,"parasite growth, flow cytometry",U-937,"72 h, intracellular, amastigote",92.7 µM
CC(=O)Oc1ccc(Cn2cc(F)c(=O)[nH]c2=O)cc1C1OC(c2ccc(Cl)cc2)=NN1C(C)=O (centres unmarked),varicella-zoster virus,"plaque formation, plaque reduction","HEL fibroblasts, TK- strain 07-1",,> 20 µM
O=c1cc[s+]([O-])c2ccc(Cl)cc12 (racemic),Leishmania panamensis,"parasite growth, flow cytometry",U-937,"72 h, intracellular, amastigote",197 µM
CC(=O)Oc1ccc(Cn2cc(C)c(=O)[nH]c2=O)cc1C1OC(c2ccccc2)=NN1C(C)=O (centres unmarked),varicella-zoster virus,"plaque formation, plaque reduction","HEL fibroblasts, TK+ strain OKA",,> 100 µM
CN(C(=O)c1ccn2ncc(-c3ccc(C(N)=O)cc3)c2c1)C1CCC(C#N)CC1 (centres unmarked),Cryptosporidium hominis,cytopathic effect,HCT-8,,> 20 µM
O=C1/C(=N\NC(=S)NN=Cc2cccs2)c2ccccc2N1Cc1ccccc1,reovirus 1,viral cytopathogenicity,Vero,,> 20 µM
CC(=O)Oc1ccc(Cn2ccc(=O)[nH]c2=O)cc1C1OC(c2ccc(Cl)cc2)=NN1C(C)=O (centres unmarked),varicella-zoster virus,"plaque formation, plaque reduction","HEL fibroblasts, TK- strain 07-1",,> 20 µM
CCOc1cccc(NC(=O)CSc2cn(C(=O)OC(C)(C)C)c3ccccc23)c1,human coronavirus OC43,"viral cytopathic effect, MTS",HCT-8,120 h,0.94 µM
CC(=O)Oc1ccc(Cn2cc(C)c(=O)[nH]c2=O)cc1C1OC(c2cccc(Cl)c2)=NN1C(C)=O (centres unmarked),varicella-zoster virus,"plaque formation, plaque reduction","HEL fibroblasts, TK+ strain OKA",,> 20 µM
CC(=Nn1c(-c2ccccc2)nc2ccccc2c1=O)c1ccc(Cl)cc1,reovirus 1,viral replication,Vero,,> 20 µg/mL
CNC(=O)c1ccc(-c2cnn3ccc(C(=O)Nc4ccc(C#N)cn4)cc23)cc1,Cryptosporidium hominis,cytopathic effect,HCT-8,,> 20 µM
CC(C)Nc1nc(NCc2ccco2)c2ccccc2n1,Leishmania mexicana,parasite growth,,amastigote,1.41 µM

# A few entries again:
SMILES,organism,assay,system,conditions,EC50
CC(C)Nc1nc(NCc2ccco2)c2ccccc2n1,Leishmania mexicana,parasite growth,,amastigote,1.41 µM
CC(=O)Oc1ccc(Cn2cc(F)c(=O)[nH]c2=O)cc1C1OC(c2cccc(Cl)c2)=NN1C(C)=O (centres unmarked),varicella-zoster virus,"plaque formation, plaque reduction","HEL fibroblasts, TK+ strain OKA",,34.4 µM
